Published values collected from several papers.
Protocols differ between the studies behind these lines. Values joined by “and” are separate records of one study, mostly repeats; a detail may differ.
Target: Discoidin domain-containing receptor 2 (DDR2, Homo sapiens, UniProt Q16832)

assay | conditions | how to read | quantity | result | SMILES
kinase activity | 0.1 µM |  | inhibition | -3% and 2% | C=CC(=O)Nc1cccc(-c2cnc3[nH]cc(C(=O)NC(C)(C)C)c3n2)c1
kinase activity, inhibitor | 1 µM | relative to: untreated control | remaining activity | 106% | COc1c(OCCCN2CCOCC2)ccc2c1N=C(NC(=O)c1cnc(N)nc1)N1CCN=C21
enzyme activity, inhibitor | 10 µM |  | inhibition | 7% | NC(=O)C[C@H]1CCc2sc3ncnc(O[C@H]4CC[C@H](N5CCOCC5)CC4)c3c21
enzyme activity, inhibitor | 0.5 µM |  | inhibition | 16% | O=C(Nc1ccc(Oc2ncnc3[nH]cc(-c4ccccc4)c23)c(F)c1)c1c2n(n(-c3cc(F)ccc3F)c1=O)CCCC2
binding, competition with immobilised ligand | 1 µM |  | remaining binding | 96% | COc1cc(Nc2nccc(-c3cnn4nc(OC)ccc34)n2)cc(C(F)(F)F)c1
competition binding |  | relative to: DDR2 over DDR1 | selectivity ratio | 3.5 | CNC(=O)C(Cc1ccc(I)cc1)NC(=O)CNC1CCN(C(=O)OC(C)(C)C)CC1 (stereo not drawn)
cell-free assay, TR-FRET | 1 µM |  | inhibition | -4% | C[C@H]1CN(C(=O)c2cn(-c3ccnc(N)n3)c3cc(C#CC4(O)CCCCC4)ccc23)CCN1
competition binding |  | relative to: DDR2 over DDR1 | selectivity ratio | 8 | CC1C(=O)N(C)C(c2ccc(Oc3cnc4ccccc4n3)cc2)N1C(=O)c1cc(C(C)(C)C)nn1-c1ccccc1 (stereo not drawn)
binding, competition with immobilised ligand | 1 µM |  | remaining binding | 0% | CCN1CCN(Cc2ccc(NC(=O)c3ccc(C)c(NC(=O)c4cncc(-c5cccs5)c4)c3)cc2C(F)(F)F)CC1
binding, competition with immobilised ligand | 1 µM |  | remaining binding | 100% | Nc1ncc2c(n1)-c1c([nH]c3ccc(C4=CCOCC4)cc13)CCC2
kinase activity | 0.1 µM, together with: ATP at Km |  | inhibition | -13.1% | CCn1cc(C(=O)O)c(=O)c2c(N)c(F)c(NC3CCCCC3)cc21
competition binding |  | relative to: DDR2 over DDR1 | selectivity ratio | 20 | CNC(=O)c1ccc(-c2cccc(NC(=O)Cc3cc(C(=O)c4ccc([S+](C)[O-])cc4)c4occc4c3)c2)cc1 (stereo not drawn)
enzyme activity, inhibitor | 10 µM |  | activity vs control | 102% | O=C(Cc1ccc(OCc2ccccc2)cc1)NC1(C(=O)O)CCN(C(=O)c2ccc(-c3cccc(Cl)c3)cc2)CC1
competition binding |  | relative to: DDR2 over DDR1 | selectivity ratio | 17 | CNC(=O)Nc1ccc(Cc2ccc(NC(=O)c3cc(Br)c(=O)n(CC4CC4)c3)cc2)cc1
cell-free assay | 1 µM |  | inhibition | 0% | Cc1cccc(O[C@H]2CCC[C@@H](C(C)CNCc3ccncc3)C2)c1 (relative stereo)
KinomeScan | 0.1 µM | relative to: untreated | remaining binding | 100% | CNC1C[S+]2CC[S+]3CC[S+](C1)[Ru-4]321([N]=C=S)[n]2c3ccc(OC)cc3c3c4c(c5cc(F)c[n+]1c5c32)C(=O)NC4=O (stereo not drawn)
competition binding |  | relative to: DDR2 over DDR1 | selectivity ratio | 0.91 | CNC(=O)Nc1ccc(Cc2ccc(NC(=O)c3nc(N)sc3-c3ccccc3)cc2)cc1
cell-free assay, competition with immobilised ligand | 3 µM |  | remaining binding | 41% | COc1c(Cl)cccc1Nc1c(-c2ccncc2C#C[C@@]2(C)CCCN2C(=O)/C=C/CN(C)C)[nH]c2c1C(=O)NCC2
enzyme activity | 1 µM | relative to: DMSO control | remaining activity | 98.6% | Nc1ncc(-c2cc(-c3cnn(CC(F)(F)F)c3)ncc2F)nc1C(=O)NC1CNCC(F)C1 (stereo not drawn)
competition binding |  | relative to: DDR2 over DDR1 | selectivity ratio | 30 | CNC(=O)Nc1ccc(Cc2ccc(NC(=O)c3cc(C(F)(F)F)cc(S(C)(=O)=O)c3)cc2)cc1
cell-free assay | 1 µM |  | inhibition | 1.7% | C=CC(=O)N1Cc2nc(-c3cc(-c4cc(Cl)cnc4Cl)c(F)cc3F)n(-c3ccncn3)c2C1

Some of these lines once more:
assay | conditions | how to read | quantity | result | SMILES
cell-free assay, competition with immobilised ligand | 3 µM |  | remaining binding | 41% | COc1c(Cl)cccc1Nc1c(-c2ccncc2C#C[C@@]2(C)CCCN2C(=O)/C=C/CN(C)C)[nH]c2c1C(=O)NCC2
enzyme activity | 1 µM | relative to: DMSO control | remaining activity | 98.6% | Nc1ncc(-c2cc(-c3cnn(CC(F)(F)F)c3)ncc2F)nc1C(=O)NC1CNCC(F)C1 (stereo not drawn)
